# Experimental data from different studies.
# Each numbered part is a random draw from the data of one study; scales do not carry over between parts. Substitutions count along the parent as printed.

# Series 1
# Target: CCND3, cyclin fold, Cln2 fusion (human)
# Technique: yeast growth competition, sequencing
# Sample: yeast
# Setting: weak parent motif
# Baseline: not given
# Reading: higher = stronger binding
# Starting sequence: viral docking peptide; KGVKRKLFAEDSS
Substitution,normalised enrichment score
A9K,0.296
A9F,-0.0822
F8N,-0.0522
F8M,0.018
S12Y,-0.285
D11F,0.474
G2L,-0.117
V3T,0.475
V3E,0.206
G2W,0.515
E10M,0.29
F8P,0.289
G2C,0.18
G2D,0.149
K4N,-0.0887

# Series 2
# Target: Sal-like protein 4, full length isoform B (SALL4, Homo sapiens, UniProt Q9UJQ4-2, residues 1-616)
# Technique: universal PBM
# Form: double-stranded DNA, one strand shown
# Sample: in vitro
# Tested at: not given
# Setting: 8-mer, flanks averaged, mean of replicates
# Reading: higher = stronger binding
Sequence,E-score
AACCCGGA,-0.324
GACAACGA,0.0355
CCGCGCGC,-0.324
CTATCTCA,0.0312
GGATCGCC,-0.29
CCCATGTC,-0.184
ATGTCGGC,-0.208
CCGTTATA,0.138

# Series 3
# Cell line: HEK-293T-ACE2-TMPRSS2
# Technique: cell count
# Tested at: 10 µM
Structure (SMILES),viability [%]
CCN(CC(=O)Nc1cc(Cl)ccc1C)c1ncnc2c1oc1ccccc12,87
COc1ccc2cc3c(N)nn(C(=O)Cc4c[nH]c5ccccc45)c3nc2c1,89
Cc1cccc2c(-c3ccncn3)c[nH]c12,86

# Series 4
# Target: HLA class I histocompatibility antigen, A alpha chain, allele A*25:01 (Homo sapiens, UniProt P04439)
# Read-out: peptide-MHC binding
# Form: peptide
# Tested at: concentration not given
Sequence,binding
NHDGIQAGV,inactive
AFMATNKAY,inactive
VVSEIDLQW,inactive
SLFNWLWYE,inactive
NMVADLWHA,inactive
NTFKFGVIY,inactive
AMITYITRK,inactive
AIDDFCLFA,inactive
MRIGSMATL,inactive
YALTEYHAM,inactive
YDRLASTVI,inactive
SPGDNSAKF,inactive
LELIGNAES,inactive
FRDEAGAIL,inactive
AELIDSFTW,inactive
LMRRFRFTV,inactive
SYMMDDLELI,inactive
YPDPVIKV,inactive
LFPELECFF,inactive
MTQNISNDK,inactive
FRYKSRCYV,inactive
NIYETEFFM,inactive
VLLISDPGL,inactive
VILYFMYRK,inactive
PELGAFFAI,inactive

# Repeated from above (series 4):
Sequence,binding
FRDEAGAIL,inactive
SYMMDDLELI,inactive
VILYFMYRK,inactive
AELIDSFTW,inactive
